# Measurements gathered from unrelated publications.
# “And” joins repeats or separate records; there may be more than shown. ± marks the error that the study gave.
SMILES,system,setting,scale,endpoint,result
COc1cccc2c1C(=O)c1c(O)c3c(c(O)c1C2=O)C[C@@](O)(C(=O)CO)C[C@@H]3O[C@H]1C[C@H](N)[C@H](O)[C@H](C)O1,CD-1 mouse,"intravenous, 10 mg/kg",negative means weight gain,body weight loss,-11%
CC(C)C[C@H](NC(=O)CNC(=O)CNC(=O)CNC(=O)[C@H](Cc1ccc(O)cc1)NC(=O)[C@H](CC(C)C)NC(=O)[C@@H](NC(=O)CNC(=O)[C@H](Cc1ccc(O)cc1)NC(=O)[C@H](CCCCN)NC(=O)[C@H](CC(N)=O)NC(=O)[C@@H](NC(=O)[C@H](CCCCN)NC(=O)[C@H](Cc1c[nH]c2ccccc12)NC(=O)CN)[C@@H](C)O)[C@@H](C)O)C(=O)N[C@@H](CCCCN)C(=O)N[C@@H](CCCCN)C(=O)N[C@@H](CC(C)C)C(=O)N[C@@H](CC(C)C)C(=O)N[C@@H](CC(C)C)C(=O)N[C@@H](CC(C)C)C(=O)N[C@@H](CC(C)C)C(=O)N[C@@H](CCCCN)C(=O)N[C@@H](CCCCN)C(=O)N[C@@H](CC(C)C)C(=O)NCC(=O)O,C57BL/6 mouse,"intraperitoneal, 40 mg/kg, 5 days",relative to: untreated,body weight,no effect
CC(=O)c1c(C)c2cnc(Nc3ccc(C4CCN(CCS(C)(=O)=O)CC4)cn3)nc2n(C2CCCC2)c1=O,mouse SW-620 xenograft,80 mg/kg twice daily,,body weight loss,< 10%
N.N.[Cl][Pt][Cl],mouse xenograft model,"dose not given, day 10",,body weight,17 g and 23 g and 21 g and 16 g and 18 g and 19 g
CC(C)[C@@H]1NC(=O)CNC(=O)[C@H](CC(N)=O)NC(=O)[C@H](CCCNC(=N)N)NC(=O)[C@H](Cc2ccc(O)cc2)NC(=O)[C@H](C(C)C)NC(=O)[C@@H](NC(=O)[C@@H](NC(=O)[C@H](CC(N)=O)NC(=O)[C@H](Cc2c[nH]c3ccccc23)NC(=O)[C@H](C)NC(=O)[C@H](Cc2ccccc2)NC(=O)CN)C(C)C)CSSC[C@@H](C(=O)N[C@@H](Cc2cnc[nH]2)C(=O)N[C@@H](CCCNC(=N)N)C(=O)N[C@@H](CCCNC(=N)N)C(=O)N[C@@H](C)C(=O)N[C@@H](CC(N)=O)C(N)=O)NC(=O)[C@H](C(C)C)NC(=O)[C@H](CCCNC(=N)N)NC1=O,ICR mouse,"ip, 10 mg/kg",direction not given,body posture score,0
Cc1c(C(=O)O)ccc2c3n(nc12)[C@@H]1[C@H](C3)N(CC2CC2)[C@@]2(C(=O)Nc3cc(Cl)ccc32)[C@H]1c1cccc(Cl)c1F,mouse,"dose not given, either dosing schedule",,body weight change,not toxic
CCCCc1nc2cc(/C=C/C(=O)NO)ccc2n1CCN(CC)CC,"mouse, MOLM-13 subcutaneous xenograft","75 mg/kg every other day, day 7",relative to: baseline,body weight,104%
N.N.[Cl][Pt][Cl],nude mouse MCF7 xenograft,"5 mg/kg, day 2",,body weight,18.8 ± 0.77 g

# Excerpt of the above:
SMILES,system,setting,scale,endpoint,result
Cc1c(C(=O)O)ccc2c3n(nc12)[C@@H]1[C@H](C3)N(CC2CC2)[C@@]2(C(=O)Nc3cc(Cl)ccc32)[C@H]1c1cccc(Cl)c1F,mouse,"dose not given, either dosing schedule",,body weight change,not toxic
